Published values from different studies.

Cc1cc(NC2CCN(C(=O)OC3CCN(C(=O)/C=C/CN(C)C)C3)CC2)n2ncc(C(C)C)c2n1 (stereo not shown)
patients with TEAE (CTCAE v4.0, item: Hypotension; patients with advanced solid tumours; oral, dose not given, all schedules, grade 3 or higher): 2%

FC(F)(F)c1ccc(CNc2ccc(Cc3c[nH]c4ncc(Cl)cc34)cn2)cn1
patients with treatment-related adverse event (item: blood alkaline phosphatase increased; patients with TGCT; oral, 1000 mg/day, grade 3 or higher): 0%

Cc1cc(-c2nnc(N)nc2-c2ccc(F)cc2)cc(Cl)n1
patients with immune-mediated AE (item: Colitis; IO-naive colorectal cancer patients; oral, dose not given, treatment-related, grade ≥3): 0%

Cc1cc(Nc2ccc(S(F)(F)(F)(F)F)cc2)n2nc(C(C)(F)F)nc2n1
patients with eye disorders (Plasmodium vivax malaria patients; oral, 800 mg): 0%

CCOc1c([C@H](C)n2nc(C)c3c(N)ncnc32)cc(Cl)c(F)c1[C@@H]1CNC(=O)C1
patients (item: QTcF change ≤30 ms; previously treated B-cell malignancy; oral, 20 mg once daily, overall population; relative to: baseline): 100%

C=CC(=O)Nc1cc(Nc2nccc(-c3cn(C)c4ccccc34)n2)c(OC)cc1N(C)CCN(C)C
patients with adverse events (item: treatment-related grade ≥3 Vomiting; EGFR-mutant MET-altered NSCLC; oral, dose not given, all): 4%

C[C@@H](Nc1cc(F)cc(F)c1)c1cc(C(=O)N(C)C)cc2c(=O)cc(N3CCOCC3)oc12
patients discontinuing for AE (item: Sepsis; advanced solid tumour patients; oral, dose not given, dose finding): 0%

Cc1ccc(C(=O)N(CCCN)C(c2nc3snc(C)c3c(=O)n2Cc2ccccc2)C(C)C)cc1 (stereo not shown)
patients with grade ≥3 mucosal inflammation (patients; intravenous, dose not given, all doses): 5%

C=CC[C@@H]1/C=C(\C)C[C@H](C)C[C@H](OC)[C@H]2O[C@@](O)(C(=O)C(=O)N3CCCC[C@H]3C(=O)O[C@H](/C(C)=C/[C@@H]3CC[C@@H](O)[C@H](OC)C3)[C@H](C)[C@@H](O)CC1=O)[C@H](C)C[C@@H]2OC
patients with C0 in therapeutic range (kidney transplant recipients, whole blood; oral, dose not given, early post-transplant phase): 35%

C=CC(=O)NC1CCN(c2ncc3ncnc(Nc4ccc(Oc5ccc6c(c5)ncn6C)c(C)c4)c3n2)CC1
patients with abdominal discomfort (male patients; oral, dose not given, treatment-related adverse events): 0%

O=C(Nc1nc2cccc(-c3ccc(CN4CCS(=O)(=O)CC4)cc3)n2n1)C1CC1
patients with gastrointestinal pain (rheumatoid arthritis patients; oral, 100 mg twice daily, 4 weeks, regardless of relatedness): 0%

COc1cc2nccc(Oc3ccc(NC(=O)c4cc5c(n(-c6ccccc6)c4=O)CCCC5=O)nc3)c2cc1OC
TEAEs, drug-related, patients with (patients with relapsed/refractory AML; oral, 10 mg once daily): 28.6%

COc1cc(Nc2ncc3c(n2)-c2ccc(Cl)cc2C(c2c(F)cccc2OC)=NC3)ccc1C(=O)O
patients with oral mucositis (cancer patients; oral, dose not given, all grades any attribution, added: pembrolizumab): 29%

CNC(=O)c1ccc(-c2cnc3ncc(Cc4ccc5ncccc5c4)n3n2)cc1F
patients with adverse event (item: Vomiting; other cancer patients; oral, 600 mg twice daily, expansion cohort, grade 3-4): 0%

COc1ccc([C@@H](O)c2cc(-c3ncnc4cc(N5CCOCC5)ccc34)c(F)cc2Cl)nn1
patients with investigation abnormalities (locally advanced rectal cancer patients; 50 mg, drug-related adverse events, added: capecitabine and radiotherapy): 0%

C=CCN1CC(=O)N2[C@@H](Cc3ccc(O)cc3F)C(=O)N(Cc3cccc(N4CC(N5CCN(CC)CC5)C4)n3)C[C@@H]2N1C(=O)NCc1ccccc1
patients with ALT increased (advanced solid tumour patients; 80 mg twice daily, treatment-related, any grade): 0%

CC(C)C[C@H](NC(=O)[C@@H](Cc1c[nH]c2ccccc12)NC(=O)[C@H](Cc1ccc(O)cc1)NC(=O)[C@H](CO)NC(=O)[C@H](Cc1c[nH]c2ccccc12)NC(=O)[C@H](Cc1c[nH]cn1)NC(=O)[C@@H]1CCC(=O)N1)C(=O)N[C@@H](CCCNC(=N)N)C(=O)N1CCC[C@H]1C(=O)NCC(N)=O
patients with adverse events (Chinese CPP children, overall; intramuscular, 22.5 mg, 12 months, day 1, month 6): 89.4%

CC(=O)O[C@H]1C(=O)[C@@]2(C)[C@H]([C@H](OC(=O)c3ccccc3)[C@]3(O)C[C@H](OC(=O)[C@H](O)[C@@H](NC(=O)c4ccccc4)c4ccccc4)C(C)=C1C3(C)C)[C@]1(OC(C)=O)CO[C@@H]1C[C@@H]2O
patients with ALT increase (patients with advanced solid tumours; intravenous, dose not given, all grades, related to treatment): 19%

CNC(=O)c1cc(Oc2ccc(NC(=O)Nc3cc(C(C)(C)C)nn3-c3ccc4ncccc4c3)c(F)c2)ccn1
patients with cardiac disorders (patients; oral, dose not given, cycles 1 and 2, Low AUC subgroup): 13%
